Assay results collected from several papers.
Compare with care: the assays were run in different laboratories. “And” joins repeats or separate records; there may be more than shown. Numbers after ± are the reported error.

C[C@]1(CO)Cc2ncn(-c3ccc(C#N)c(Cl)c3)c2C(=O)O1 — drug-related Dizziness incidence (healthy humans; 10 mg, fed): 0%
O.O.O.O.O.O.[Cl-].[Cl-].[Co+2] — cobalt in urine (rat female, urine; oral, 10 mg/kg single, day 1): 4970 µg/L
C[C@@H](Oc1cc(-c2cnn(C3CCNCC3)c2)cnc1N)c1c(Cl)ccc(F)c1Cl — maximum tolerated dose (CD1 nude mice; oral, 20 days daily): 150 mg/kg
CN1CCN(c2cccc3c2CCN(C(=O)/C=C/c2c(-n4cnnn4)ccc(Cl)c2F)[C@@H]3C(=O)Nc2ccc(C(=O)O)cc2)C(=O)C1 — deaths (healthy human subjects; intravenous infusion, 20 mg/h, 5 days): 0%
C[C@@H](NC(=O)N1C(=O)[C@H](Cc2ccnc(N)c2)[C@H]1C(=O)O)C1CCCCC1 — incidence of urine occult blood positive (healthy adult Chinese volunteers; continuous intravenous infusion, 1.5 mg/kg/h, 5-day infusion, CTCAE 5.0 grading): 12.5%
C[C@@H]1NC(=O)[C@H](CCCCNC(=O)CO/N=C/C(=O)NCCCC[C@@H]2NC(=O)[C@@H](Cc3ccccc3)NC(=O)[C@H](CC(=O)O)NC(=O)CNC(=O)[C@H](CCCNC(=N)N)NC2=O)NC(=O)CNC(=O)[C@@H]2CCCN2C(=O)[C@H](CCCCNC(=O)CO/N=C/C(=O)NCCCC[C@@H]2NC(=O)[C@@H](Cc3ccccc3)NC(=O)[C@H](CC(=O)O)NC(=O)CNC(=O)[C@H](CCCNC(=N)N)NC2=O)NC(=O)[C@H](CCCCNC(=O)CCNC(=O)CCNC(=O)CCNC(=O)[C@H](CCCCN)NC(=O)[C@H](Cc2ccccc2)NC(=O)CNC(=O)CN2CCCNCCNCCCNCC2)NC(=O)[C@H](CCCCNC(=O)CO/N=C/C(=O)NCCCC[C@@H]2NC(=O)[C@@H](Cc3ccccc3)NC(=O)[C@H](CC(=O)O)NC(=O)CNC(=O)[C@H](CCCNC(=N)N)NC2=O)NC(=O)CNC(=O)[C@@H]2CCCN2C(=O)[C@H](CCCCNC(=O)CO/N=C/C(=O)NCCCC[C@@H]2NC(=O)[C@@H](Cc3ccccc3)NC(=O)[C@H](CC(=O)O)NC(=O)CNC(=O)[C@H](CCCNC(=N)N)NC2=O)NC1=O [copper-64 labelled] — tissue uptake (normal mice, stomach; intravenous, 0.74 MBq, 3 h post-injection): 2.05 ± 0.33 %ID/g
O=C(Nc1ccccc1)C1CCN(C(=O)Oc2cccnc2)CC1 — adverse event Constipation (healthy women; oral, 100 mg, 9 days): 7.7%
CC[C@H](C)[C@H](NC(=O)[C@H](CCCCN)NC(=O)[C@H](CCC(=O)O)NC(=O)[C@H](CCCCN)NC(=O)[C@H](CO)NC(=O)[C@H](CCCCN)NC(=O)[C@H](CCCNC(=N)N)NC(=O)[C@H](Cc1ccccc1)NC(=O)[C@H](Cc1ccccc1)NC(=O)[C@H](CC(=O)O)NC(=O)CNC(=O)[C@H](CC(C)C)NC(=O)[C@@H](N)CC(C)C)C(=O)NCC(=O)N[C@@H](CCCCN)C(=O)N[C@@H](CCC(=O)O)C(=O)N[C@@H](Cc1ccccc1)C(=O)N[C@@H](CCCCN)C(=O)N[C@@H](CCCNC(=N)N)C(=O)N[C@H](C(=O)N[C@H](C(=O)N[C@@H](CCC(N)=O)C(=O)N[C@@H](CCCNC(=N)N)C(=O)N[C@H](C(=O)N[C@@H](CCCCN)C(=O)N[C@@H](CC(=O)O)C(=O)N[C@@H](Cc1ccccc1)C(=O)N[C@@H](CC(C)C)C(=O)N[C@@H](CCCNC(=N)N)C(=O)N[C@@H](CC(N)=O)C(=O)N[C@@H](CC(C)C)C(=O)N[C@H](C(=O)N1CCC[C@H]1C(=O)N[C@@H](CCCNC(=N)N)C(=O)N[C@H](C(=O)N[C@@H](CCC(=O)O)C(=O)N[C@@H](CO)C(=O)O)[C@@H](C)O)C(C)C)[C@@H](C)CC)C(C)C)[C@@H](C)CC — remaining intact peptide (LC-MS; 50% pooled human serum; 40 µM, 10 min, pH 7.5, 37 °C; reference: 0 h): 18.7% and 17.5% and 10.9%
CC1(C)[C@H](C(=O)OCc2cccc(Oc3ccccc3)c2)[C@@H]1C=C(Cl)Cl — enzyme contribution to clearance (measured: CYP3A4; human, age 1 year, recombinant human CYP3A4; 0.1 µM): 0.64%
CCCCCCCCCCCCCCCC(=O)N[C@@H](CCC(=O)NCCCC[C@H](NC(=O)[C@H](CC(=O)O)NC(=O)[C@H](CO)NC(=O)[C@@H](NC(=O)[C@H](Cc1ccccc1)NC(=O)[C@@H](NC(=O)CNC(=O)[C@H](CCC(N)=O)NC(=O)[C@H](CO)NC(=O)[C@@H](N)Cc1c[nH]cn1)[C@@H](C)O)[C@@H](C)O)C(=O)N[C@@H](CO)C(=O)N[C@@H](CCC(=O)O)C(=O)N[C@@H](Cc1ccc(O)cc1)C(=O)N[C@@H](CC(C)C)C(=O)N[C@@H](CC(=O)O)C(=O)N[C@@H](CO)C(=O)N[C@@H](CCC(=O)O)C(=O)N[C@@H](CCCNC(=N)N)C(=O)N[C@@H](C)C(=O)N[C@@H](CCCNC(=N)N)C(=O)N[C@@H](CC(=O)O)C(=O)N[C@@H](Cc1ccccc1)C(=O)N[C@H](C(=O)N[C@@H](C)C(=O)N[C@@H](Cc1c[nH]c2ccccc12)C(=O)N[C@@H](CC(C)C)C(=O)N[C@@H](CCC(=O)O)C(=O)N[C@@H](C)C(=O)NCC(=O)NCC(=O)O)C(C)C)C(=O)O — treatment-related adverse events (measured: Dyspepsia; humans CrCl 20 to 30 mL/min; subcutaneous, 100 µg single dose): 0%
CC(C)Nc1ccnc(Nc2cccc(-c3cccnc3)c2)n1 — blood chemistry (measured: potassium; mouse, blood; intraperitoneal, 3 mg/kg): 8.52 mmol/L
COc1cc2c(Oc3ccc4[nH]c(C)cc4c3F)ccnc2cc1OCC1(N)CC1 — Triglyceride elevation incidence (paediatric refractory sarcoma patients; 12 mg): 18.2%
COc1ncccc1-c1cnn2ccc(N3CCN(C(=O)OC(C)C)CC3)nc12 — drug concentration (mouse nerve ligation model, plasma; oral, 30 mg/kg, 120 min after last dose, repeat dosing day 5): 5.9 µM
Cc1cccc(Cn2nc(C3CC3)c3c(NC(=O)c4cnc5cc(OCCN6CCN(C)CC6)ccn45)cccc32)n1 — all-cause adverse events (CTCAE v4.03, measured: ALT increased; pancreatic ductal adenocarcinoma patients; oral, dose not given, added: pembrolizumab IV every 3 weeks): 18.5%
CCC[C@@](N)(CO)CCc1ccc(OCCCCCC(C)C)cc1 — AUC(0-t) (dog, male hounds, plasma; oral capsule, 5 mg/kg, geometric mean): 7.28 µM·h
COS(C)(=O)=O — PCE to total erythrocytes ratio (male Hsd:ICR (CD-1) mouse, bone marrow; oral, 40 mg/kg/day, positive control): 0.508
Cn1c(-c2ccc(C(N)=O)cc2F)nnc1C(C)(C)Oc1c(F)cc(Cl)cc1F — subjects with drug-related TEAE (human; oral, 10 mg, single ascending dose): 0%
CCc1ccc(CC/C=C/c2ccc3c(c2)C(=O)CC3)cc1 — Phosphorus (Sprague-Dawley rat, male; oral, 30 mg/kg/day, 14 days): 2.86 mM
CCc1nc(C(N)=O)c(Nc2ccc(N3CCC(N4CCN(C)CC4)CC3)c(OC)c2)nc1NC1CCOCC1 — Cmin (patients, plasma; oral, 120 mg once daily, cycle 1 day 15, median): 227 ng/mL
O=c1ccc2cc3ccoc3cc2o1 — accuracy (rat plasma; 8 ng/mL, 2 weeks, -70 °C, post-preparative stability): 93.7%
CC(C)C[C@H](NC(=O)[C@H](CCCCN)NC(=O)OCC1c2ccccc2-c2ccccc21)C(=O)N[C@H](C(=O)N[C@@H](Cc1ccccc1)C(=O)N[C@@H](Cc1ccccc1)C(=O)N[C@@H](CCCCN)C(=O)NCC(=O)N[C@@H](Cc1ccccc1)C(=O)N[C@@H](C)C(=O)N[C@@H](Cc1c[nH]c2ccccc12)C(=O)N[C@@H](CC(N)=O)C(=O)N[C@H](C(=O)N[C@H]1CSSC[C@@H](C(=O)N[C@@H](Cc2c[nH]cn2)C(=O)N[C@@H](CCCNC(=N)N)C(=O)N[C@@H](CCCNC(=N)N)C(=O)N[C@@H](C)C(=O)N[C@@H](CC(N)=O)C(N)=O)NC(=O)[C@H](C(C)C)NC(=O)[C@H](CCCNC(=N)N)NC(=O)[C@H](C(C)C)NC(=O)CNC(=O)[C@H](CC(N)=O)NC(=O)[C@H](CCCNC(=N)N)NC(=O)[C@H](Cc2ccc(O)cc2)NC(=O)[C@H](C(C)C)NC1=O)C(C)C)C(C)C — total protein (ICR mouse, serum; ip, 5 mg/kg, 3 d dosing, blood day 5): 51.8 ± 1.07 g/L
CN1CC[C@@H](c2c(O)cc(O)c3c(=O)cc(-c4ccc(C(F)(F)F)cc4Cl)oc23)[C@@H]1CO — patients with adverse event (measured: Epistaxis; B-cell malignancies or AML; oral, 50 mg, continuous dosing): 0%
CC(C)C(=O)OC[C@H]1O[C@@H](n2ccc(NO)nc2=O)[C@H](O)[C@@H]1O — autosampler stability (rat placenta dialysate; 250 ng/mL, 6 h, 10 °C, high QC concentration, added: NHC 1000 ng/mL): 103 ± 1.27%
O=[N+]([O-])c1ccc2c(c1)S(=O)(=O)C=C2 — platelet distribution width (male C57BL/6 mice, blood; intraperitoneal, 20 mg/kg, day 8, group average): 14.8%
CC[C@H](C)[C@@H]1NC(=O)[C@@H]2CSSC[C@H](NC(=O)[C@H](CCCNC(=N)N)NC(=O)[C@@H]3CSSC[C@H](NC1=O)C(=O)N[C@@H]([C@@H](C)O)C(=O)N[C@@H](CCCNC(=N)N)C(=O)NCC(=O)N[C@@H](Cc1ccccc1)C(=O)N3)C(=O)N[C@@H](CC(C)C)C(=O)N[C@H]1CSSC[C@H](NC(=O)[C@H](C(C)C)NC(=O)CNC(=O)[C@H](CCCNC(=N)N)NC(=O)[C@H](CCCNC(=N)N)NC1=O)C(=O)N[C@@H](CCCNC(=N)N)C(=O)N2 — hepatocyte necrosis score (Sprague-Dawley rats, male, liver; 20 mg/kg; direction not given): 1 to 3
[2H]C([2H])([18F])[C@]([2H])(N)C(=O)O — tissue uptake (U-87 MG xenograft mouse, kidney; 110 min): 7.44 ± 3.16 %ID/g
C[C@@H]1OC(=O)NN=C1c1ccc(-c2ccc(F)cc2)c(C(F)(F)F)c1 — patients with adverse event (phase I trial, measured: back pain all grades; human patients; 5 mg loading then 0.25 mg daily): 0%
CC(C)[C@@H]1NC(=O)CNC(=O)[C@H](CC(N)=O)NC(=O)[C@H](CCCNC(=N)N)NC(=O)[C@H](Cc2ccc(O)cc2)NC(=O)[C@H](C(C)C)NC(=O)[C@@H](NC(=O)[C@@H](NC(=O)[C@H](CC(N)=O)NC(=O)[C@H](Cc2c[nH]c3ccccc23)NC(=O)[C@H](C)NC(=O)[C@H](Cc2ccccc2)NC(=O)CN)C(C)C)CSSC[C@@H](C(=O)N[C@@H](Cc2cnc[nH]2)C(=O)N[C@@H](CCCNC(=N)N)C(=O)N[C@@H](CCCNC(=N)N)C(=O)N[C@@H](C)C(=O)N[C@@H](CC(N)=O)C(N)=O)NC(=O)[C@H](C(C)C)NC(=O)[C@H](CCCNC(=N)N)NC1=O — tremor score (ICR mouse; ip, 10 mg/kg; direction not given): 0
CO[C@H]1C[C@@H]2CC[C@@H](C)[C@@](O)(O2)C(=O)C(=O)N2CCCC[C@H]2C(=O)O[C@H]([C@H](C)C[C@@H]2CC[C@@H](OC(=O)NCCOCCOCCOCCOCCOCCOCCOCCOCCC(=O)N3CCc4cc(Cn5nc(-c6ccc7oc(N)nc7c6)c6c(N)ncnc65)ccc4C3)[C@H](OC)C2)C[C@@H](O)[C@H](C)/C=C(\C)[C@@H](O)[C@@H](OC)C(=O)[C@H](C)C[C@H](C)/C=C/C=C/C=C/1C — incidence of Mucositis TRAE (patients with advanced solid tumours; intravenous, 1.6 mg/3 mg weekly, any grade): 20%
Nc1ncnc2c1ncn2[C@@H]1O[C@@H]2COP(=O)([S-])O[C@@H]3[C@H](O)[C@@H](COP([O-])(=S)O[C@H]2[C@H]1O)O[C@H]3n1cnc2c(N)ncnc21.[Na+].[Na+] (stereo partly shown) — triglycerides (non-tumor-bearing mice, serum; intravenous, 1 mg/kg, toxicity study): 1.33 ± 0.13 mmol/L
COc1ccc([C@@H]2CC(=O)c3c(O)cc(O)cc3O2)cc1O — amount excreted in urine (Sprague-Dawley rat, male, lean, urine; oral, 100 mg/kg of neohesperidin, 48 h, after β-glucuronidase/sulfatase, total): 110 ± 15.7 ng
CCCCCOc1ccc(-c2ccc(-c3ccc(C(=O)N[C@H]4C[C@@H](O)[C@@H](OCC[N+](C)(C)C)NC(=O)[C@@H]5[C@@H](O)[C@@H](C)CN5C(=O)[C@H]([C@@H](C)O)NC(=O)[C@H]([C@H](O)[C@@H](O)c5ccc(O)cc5)NC(=O)[C@@H]5C[C@@H](O)CN5C(=O)[C@H]([C@@H](C)O)NC4=O)cc3)cc2)cc1 — potassium (adult ICU patients, mITT, serum; dose not given, Baseline): 4.2 mmol/L
O=C1Nc2cc3[nH]nc(-c4ccncc4)c3cc2CN1Cc1ccccc1 — patients with abdominal pain (CTCAE v4.03; advanced solid tumour patients; intravenous, 4.8 mg/kg, schedules 1/2): 0%
COc1ccc(C[C@@H]2NC(=O)[C@@H](CC(C)C)NC(=O)[C@H](CCSC)NC(=O)[C@H](CC(C)C)NC(=O)[C@@H](CC(C)C)NC(=O)[C@H]3CCCN3C2=O)cc1 — Papp (LC/MS; horizontal lipid bilayer; 10 µM, 1 h, room temperature, 1% DMSO in PBS): 40 ± 20 ×10⁻⁶ cm/s
CC(C)(C)c1cc(-n2nc3ccccc3n2)c(O)c(C(C)(C)C)c1 — mean daily dermal uptake (exposure assessment; human, age 3-6 years; spray sunscreen): 5.43 ng/kg body weight/day
CC(C)(O)c1cc(Nc2cc(Oc3cn(C4CC4)nc3C3CCOCC3)ccn2)ccn1 — ALT increased, any grade (patients with advanced cancer, Japanese cohort; oral, dose not given, treatment-related adverse events): 22%
CCCSc1ccc2nc(NC(=O)OC)[nH]c2c1 — mean corpuscular volume (mouse, blood; oral, 50 mg/kg, tolerability, mean): 45.5 fL
